Published values from different studies.
Compare with care: the assays were run in different laboratories. ± marks the error that the study gave.
Grm2: Metabotropic glutamate receptor 2 (Grm2, Rattus norvegicus, UniProt P31421)
FGFR1: Fibroblast growth factor receptor 1 (FGFR1, Homo sapiens, UniProt P11362)
Tubulin alpha/beta heterodimer: Tubulin alpha/beta heterodimer (Leishmania infantum, UniProt A0A381MCS3+A4HTR0)
APP amyloid-beta peptide: Amyloid-beta precursor protein, amyloid-beta peptide (APP, Homo sapiens, UniProt P05067)

By UniProt entry, the sequences of proteins in these tests, tags left out. Where a name states a change or a piece, a line headed by the entry shows the natural chain unless it says otherwise. Residues count along the entry.
UniProt P31421, 19-872 limits assumed: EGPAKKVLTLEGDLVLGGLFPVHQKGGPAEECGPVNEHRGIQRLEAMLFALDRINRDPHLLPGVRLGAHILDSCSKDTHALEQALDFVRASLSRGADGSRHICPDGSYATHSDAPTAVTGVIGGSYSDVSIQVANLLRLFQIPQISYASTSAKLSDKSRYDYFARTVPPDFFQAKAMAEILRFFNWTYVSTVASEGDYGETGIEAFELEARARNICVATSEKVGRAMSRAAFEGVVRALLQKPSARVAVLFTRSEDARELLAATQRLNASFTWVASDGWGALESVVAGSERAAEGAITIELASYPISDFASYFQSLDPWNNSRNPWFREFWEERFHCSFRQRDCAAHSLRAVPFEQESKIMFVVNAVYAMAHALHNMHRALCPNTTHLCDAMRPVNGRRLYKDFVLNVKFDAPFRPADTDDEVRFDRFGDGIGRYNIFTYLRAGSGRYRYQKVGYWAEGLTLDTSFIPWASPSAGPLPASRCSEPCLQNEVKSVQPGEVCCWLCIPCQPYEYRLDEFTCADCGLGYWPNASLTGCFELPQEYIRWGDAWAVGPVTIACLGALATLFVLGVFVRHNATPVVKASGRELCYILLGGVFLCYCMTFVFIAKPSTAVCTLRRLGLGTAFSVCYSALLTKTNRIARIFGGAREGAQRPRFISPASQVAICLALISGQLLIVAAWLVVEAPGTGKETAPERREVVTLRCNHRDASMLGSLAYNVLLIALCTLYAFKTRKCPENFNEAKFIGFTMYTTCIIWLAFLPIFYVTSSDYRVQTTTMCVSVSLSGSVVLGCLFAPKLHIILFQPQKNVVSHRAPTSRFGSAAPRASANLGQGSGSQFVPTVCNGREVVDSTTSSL
UniProt P11362, 22-822 limits assumed: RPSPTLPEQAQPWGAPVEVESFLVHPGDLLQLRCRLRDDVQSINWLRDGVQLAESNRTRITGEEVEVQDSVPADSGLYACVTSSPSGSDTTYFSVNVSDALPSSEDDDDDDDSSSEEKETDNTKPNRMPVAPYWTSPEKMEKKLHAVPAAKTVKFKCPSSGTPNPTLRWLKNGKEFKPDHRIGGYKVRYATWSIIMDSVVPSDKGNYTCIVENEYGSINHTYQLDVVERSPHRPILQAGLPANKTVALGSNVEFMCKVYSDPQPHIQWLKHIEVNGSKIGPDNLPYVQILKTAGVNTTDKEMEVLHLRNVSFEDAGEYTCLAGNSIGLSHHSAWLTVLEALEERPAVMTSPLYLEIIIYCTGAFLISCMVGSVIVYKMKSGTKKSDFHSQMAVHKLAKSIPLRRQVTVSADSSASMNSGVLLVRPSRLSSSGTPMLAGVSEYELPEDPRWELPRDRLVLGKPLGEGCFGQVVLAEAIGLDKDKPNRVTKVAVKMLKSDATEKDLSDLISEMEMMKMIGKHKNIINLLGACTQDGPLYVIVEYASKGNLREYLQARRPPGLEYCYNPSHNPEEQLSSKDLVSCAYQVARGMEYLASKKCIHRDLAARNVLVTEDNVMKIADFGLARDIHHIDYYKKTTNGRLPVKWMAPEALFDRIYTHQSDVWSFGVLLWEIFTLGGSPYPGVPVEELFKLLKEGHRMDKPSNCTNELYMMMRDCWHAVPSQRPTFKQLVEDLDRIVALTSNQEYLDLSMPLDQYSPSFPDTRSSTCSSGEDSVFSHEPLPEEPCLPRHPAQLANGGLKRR
UniProt P11362, 478-767 limits assumed: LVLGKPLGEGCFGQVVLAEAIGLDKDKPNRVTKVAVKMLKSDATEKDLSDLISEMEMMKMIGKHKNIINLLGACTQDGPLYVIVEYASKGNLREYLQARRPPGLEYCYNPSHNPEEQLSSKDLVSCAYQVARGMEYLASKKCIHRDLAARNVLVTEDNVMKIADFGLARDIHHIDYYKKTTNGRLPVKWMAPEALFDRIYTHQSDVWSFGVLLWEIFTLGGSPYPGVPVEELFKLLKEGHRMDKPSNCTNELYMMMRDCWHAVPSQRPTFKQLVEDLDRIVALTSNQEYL
UniProt P41597, whole entry: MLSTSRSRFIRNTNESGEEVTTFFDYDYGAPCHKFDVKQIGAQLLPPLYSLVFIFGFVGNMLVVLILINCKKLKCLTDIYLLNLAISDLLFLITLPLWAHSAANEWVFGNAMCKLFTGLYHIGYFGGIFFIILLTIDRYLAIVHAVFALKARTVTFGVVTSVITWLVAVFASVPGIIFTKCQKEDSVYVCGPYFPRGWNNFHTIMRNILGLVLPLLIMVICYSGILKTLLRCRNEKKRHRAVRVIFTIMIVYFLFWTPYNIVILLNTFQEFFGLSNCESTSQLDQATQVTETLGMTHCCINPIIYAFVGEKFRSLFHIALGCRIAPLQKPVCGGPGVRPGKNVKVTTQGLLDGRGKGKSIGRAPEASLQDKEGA
UniProt P03372, whole entry: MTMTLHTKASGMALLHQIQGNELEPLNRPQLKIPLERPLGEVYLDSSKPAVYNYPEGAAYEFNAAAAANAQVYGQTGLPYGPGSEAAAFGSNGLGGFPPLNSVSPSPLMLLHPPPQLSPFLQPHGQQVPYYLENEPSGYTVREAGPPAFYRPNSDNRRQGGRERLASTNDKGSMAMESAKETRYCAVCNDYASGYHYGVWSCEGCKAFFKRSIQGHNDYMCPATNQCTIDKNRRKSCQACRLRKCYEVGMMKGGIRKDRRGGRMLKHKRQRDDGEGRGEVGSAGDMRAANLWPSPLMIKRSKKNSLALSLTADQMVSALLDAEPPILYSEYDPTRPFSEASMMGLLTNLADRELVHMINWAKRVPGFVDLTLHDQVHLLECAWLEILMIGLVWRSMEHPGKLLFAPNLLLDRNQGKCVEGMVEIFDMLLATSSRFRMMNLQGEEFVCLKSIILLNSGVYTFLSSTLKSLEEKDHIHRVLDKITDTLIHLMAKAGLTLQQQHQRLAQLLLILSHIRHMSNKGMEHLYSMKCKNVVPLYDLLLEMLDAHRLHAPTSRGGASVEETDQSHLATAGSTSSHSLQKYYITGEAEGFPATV
UniProt P03372, 311-547 limits assumed: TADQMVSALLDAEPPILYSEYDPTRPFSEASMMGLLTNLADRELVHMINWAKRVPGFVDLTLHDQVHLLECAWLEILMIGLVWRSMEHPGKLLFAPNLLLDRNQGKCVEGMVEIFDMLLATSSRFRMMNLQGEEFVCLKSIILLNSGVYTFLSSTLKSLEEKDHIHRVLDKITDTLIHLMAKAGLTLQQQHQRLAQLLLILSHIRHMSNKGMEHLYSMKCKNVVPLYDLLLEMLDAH
UniProt P26038, whole entry, looked up: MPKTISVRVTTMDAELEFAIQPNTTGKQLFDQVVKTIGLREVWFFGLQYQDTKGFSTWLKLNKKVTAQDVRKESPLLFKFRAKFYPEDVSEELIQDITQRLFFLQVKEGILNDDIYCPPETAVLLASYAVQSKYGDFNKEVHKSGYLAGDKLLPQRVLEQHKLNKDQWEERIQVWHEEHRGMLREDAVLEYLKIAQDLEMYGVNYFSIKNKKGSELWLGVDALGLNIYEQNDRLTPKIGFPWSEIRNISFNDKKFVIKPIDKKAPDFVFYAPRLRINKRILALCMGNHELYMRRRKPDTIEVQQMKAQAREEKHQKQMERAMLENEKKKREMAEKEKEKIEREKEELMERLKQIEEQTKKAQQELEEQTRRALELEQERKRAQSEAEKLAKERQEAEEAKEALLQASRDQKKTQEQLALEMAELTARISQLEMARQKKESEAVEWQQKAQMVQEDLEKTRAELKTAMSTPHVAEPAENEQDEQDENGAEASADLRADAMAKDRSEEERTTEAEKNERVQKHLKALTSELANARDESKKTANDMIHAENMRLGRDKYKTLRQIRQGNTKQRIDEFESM
UniProt Q6P5Z2, whole entry: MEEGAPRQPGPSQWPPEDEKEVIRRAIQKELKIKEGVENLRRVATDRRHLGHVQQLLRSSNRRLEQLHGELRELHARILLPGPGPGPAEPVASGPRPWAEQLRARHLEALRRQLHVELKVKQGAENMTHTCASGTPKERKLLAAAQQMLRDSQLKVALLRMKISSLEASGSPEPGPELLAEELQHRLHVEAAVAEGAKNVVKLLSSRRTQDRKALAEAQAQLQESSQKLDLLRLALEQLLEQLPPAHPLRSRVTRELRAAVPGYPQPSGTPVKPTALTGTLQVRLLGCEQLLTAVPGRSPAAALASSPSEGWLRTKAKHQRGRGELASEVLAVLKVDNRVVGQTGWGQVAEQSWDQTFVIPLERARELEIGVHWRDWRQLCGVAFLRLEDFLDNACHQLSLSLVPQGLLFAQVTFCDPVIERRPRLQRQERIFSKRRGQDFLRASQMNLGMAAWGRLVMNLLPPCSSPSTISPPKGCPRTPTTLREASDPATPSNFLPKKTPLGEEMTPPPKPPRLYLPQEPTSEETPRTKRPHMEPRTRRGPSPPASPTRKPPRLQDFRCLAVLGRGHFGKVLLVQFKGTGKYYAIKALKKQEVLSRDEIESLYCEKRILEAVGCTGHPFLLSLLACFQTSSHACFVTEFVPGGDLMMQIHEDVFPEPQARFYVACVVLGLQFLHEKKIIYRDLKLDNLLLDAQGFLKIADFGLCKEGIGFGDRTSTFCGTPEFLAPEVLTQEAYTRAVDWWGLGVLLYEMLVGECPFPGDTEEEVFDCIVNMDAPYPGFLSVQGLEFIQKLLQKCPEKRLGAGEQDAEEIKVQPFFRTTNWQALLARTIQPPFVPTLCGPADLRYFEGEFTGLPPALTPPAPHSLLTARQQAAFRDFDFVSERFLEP
UniProt P07949, whole entry, looked up, stated change not applied: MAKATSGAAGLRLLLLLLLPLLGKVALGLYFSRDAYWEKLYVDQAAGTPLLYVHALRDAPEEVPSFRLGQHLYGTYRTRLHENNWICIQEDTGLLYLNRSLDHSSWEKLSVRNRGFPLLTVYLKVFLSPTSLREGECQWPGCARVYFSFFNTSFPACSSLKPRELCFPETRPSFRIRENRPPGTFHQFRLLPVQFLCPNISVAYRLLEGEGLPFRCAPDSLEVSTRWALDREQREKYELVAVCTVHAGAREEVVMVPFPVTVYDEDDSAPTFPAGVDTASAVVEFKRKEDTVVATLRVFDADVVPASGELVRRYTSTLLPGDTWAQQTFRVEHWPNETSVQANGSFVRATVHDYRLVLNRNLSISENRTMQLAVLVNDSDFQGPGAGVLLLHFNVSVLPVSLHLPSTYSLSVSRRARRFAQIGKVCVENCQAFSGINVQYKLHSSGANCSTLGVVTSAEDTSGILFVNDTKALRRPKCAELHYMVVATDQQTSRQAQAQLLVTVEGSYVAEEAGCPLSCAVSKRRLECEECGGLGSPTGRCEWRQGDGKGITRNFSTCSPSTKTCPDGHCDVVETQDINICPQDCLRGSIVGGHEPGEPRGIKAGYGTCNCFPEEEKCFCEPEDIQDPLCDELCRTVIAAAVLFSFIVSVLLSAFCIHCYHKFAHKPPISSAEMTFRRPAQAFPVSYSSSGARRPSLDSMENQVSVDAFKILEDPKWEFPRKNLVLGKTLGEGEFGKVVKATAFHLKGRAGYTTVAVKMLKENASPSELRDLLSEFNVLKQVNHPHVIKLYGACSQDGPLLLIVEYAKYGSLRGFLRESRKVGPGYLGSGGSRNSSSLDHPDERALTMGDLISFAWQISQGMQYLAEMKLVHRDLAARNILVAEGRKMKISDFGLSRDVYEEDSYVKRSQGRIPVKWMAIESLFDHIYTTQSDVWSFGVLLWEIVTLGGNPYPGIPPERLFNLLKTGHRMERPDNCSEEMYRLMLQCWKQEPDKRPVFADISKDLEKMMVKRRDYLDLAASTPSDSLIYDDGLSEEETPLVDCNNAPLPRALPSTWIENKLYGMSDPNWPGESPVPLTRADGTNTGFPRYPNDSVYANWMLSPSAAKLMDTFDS
UniProt P14902, whole entry: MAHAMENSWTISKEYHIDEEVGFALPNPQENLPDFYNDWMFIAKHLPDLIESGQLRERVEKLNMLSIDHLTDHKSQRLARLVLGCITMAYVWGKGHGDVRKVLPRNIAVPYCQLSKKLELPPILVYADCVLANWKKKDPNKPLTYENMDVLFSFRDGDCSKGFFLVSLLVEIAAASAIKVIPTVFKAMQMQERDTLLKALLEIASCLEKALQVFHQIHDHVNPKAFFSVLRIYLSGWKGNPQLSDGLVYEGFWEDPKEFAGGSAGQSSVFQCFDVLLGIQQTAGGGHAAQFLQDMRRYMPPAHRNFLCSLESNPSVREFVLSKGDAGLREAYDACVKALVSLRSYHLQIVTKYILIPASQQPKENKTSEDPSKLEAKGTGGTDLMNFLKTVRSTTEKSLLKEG
UniProt P49336, whole entry: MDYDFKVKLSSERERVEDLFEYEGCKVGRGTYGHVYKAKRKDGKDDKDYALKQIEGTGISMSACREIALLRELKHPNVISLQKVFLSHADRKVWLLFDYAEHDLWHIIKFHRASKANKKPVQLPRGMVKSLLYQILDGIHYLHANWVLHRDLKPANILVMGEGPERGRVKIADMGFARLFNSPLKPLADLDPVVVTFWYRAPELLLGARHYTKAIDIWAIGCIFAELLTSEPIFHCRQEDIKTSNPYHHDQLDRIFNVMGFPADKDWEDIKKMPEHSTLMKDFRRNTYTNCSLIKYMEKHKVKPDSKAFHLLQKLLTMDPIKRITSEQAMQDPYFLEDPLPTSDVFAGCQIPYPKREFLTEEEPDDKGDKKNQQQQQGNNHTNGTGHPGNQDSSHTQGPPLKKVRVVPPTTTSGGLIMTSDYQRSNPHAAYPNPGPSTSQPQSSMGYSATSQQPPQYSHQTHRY

`O=C(O)c1cc(C(=O)N2CCC[C@H]2C(=O)O)cc([C@H]2CCN[C@@H]2C(=O)O)c1` has an IC50 of 10 to 50 µM (kainate receptor (rat); binding, radioligand binding; rat cortical synaptosomes; with: [3H]kainate).
The IC50 of `CN1CC[C@H](c2c(O)cc(O)c3c(=O)cc(-c4ccccc4F)oc23)[C@H](O)C1` is reported as 1.42 µM (Cyclin-dependent kinase 3, with cyclin E (CDK3, Homo sapiens, UniProt Q00526); ATP at Km).
For `O=C1Nc2ccccc2C2(CCN(CCc3ccc(OCCF)cc3)CC2)O1`, the IC50 was 3.5 µM (C-C chemokine receptor type 2 (CCR2, Homo sapiens, UniProt P41597); binding, radioligand displacement; membranes).
`Cn1ccnc1SCC(=O)Nc1ccc2nc(SCC(=O)NC3CC3)sc2c1` gave an IC50 of > 50 µM (Estrogen receptor, ligand-binding domain; with SRC-3 (ESR1, Homo sapiens, UniProt P03372); coactivator binding, TR-FRET; with: SRC-3 fragment).
For `NC(=O)c1cn(-c2ccc(F)cc2)c2ccc(OCc3ccncc3)cc2c1=O`, the IC50 was 0.895 µM (Grm2; calcium mobilization, negative allosteric modulator).
`COC(=O)Cc1ccc(C(NS(=O)(=O)c2cccs2)C(=O)Nc2ccc(Cl)cc2)cc1` (centres unmarked) has an IC50 of 3.58 ± 0.24 µM (Uracil nucleotide/cysteinyl leukotriene receptor, long isoform (GPR17, Homo sapiens, UniProt Q13304); calcium mobilization, antagonist; 1321-N1).
With `O=C(OC(C(F)(F)F)C(F)(F)F)N1CC[C@@H](OC(c2ccc(F)cc2)c2ccc(F)cc2)C1` the IC50 was 1.34 ± 0.103 µM (Monoglyceride lipase (MGLL, Homo sapiens, UniProt Q99685); inhibitor, fluorescence; with: AHMMCE substrate).
For `CCn1c(-c2cc(NC(=O)c3cnccn3)n[nH]2)cc2ccccc21`, the IC50 was 21 ± 0.44 µM (Glycogen synthase kinase-3 beta (GSK3B, Homo sapiens, UniProt P49841); enzyme activity, inhibitor).
For `O=C(Nc1ccc(-c2nc3ccccc3[nH]2)cc1)c1ccccc1F`, the IC50 was > 100 µM (Moesin, with CD44 (Homo sapiens, UniProt P26038); MSN-CD44 interaction, inhibitor, TR-FRET; with: CD44).
The IC50 of `[2H]c1c([2H])c(S(=O)(=O)N2CCC(C)(C(=O)Nc3ccc4cc(C(=O)O)ccc4c3)CC2)c(C([2H])([2H])[2H])c([2H])c1C([2H])([2H])[2H]` is reported as 3.5 µM (Bifunctional epoxide hydrolase 2 (EPHX2, Homo sapiens, UniProt P34913); pH 7.0, 30 °C, with: CMNPC substrate 5 µM).
The IC50 of `COc1cc(Nc2ccnc3ccc(Cl)cc23)cc(OC)c1OC` is reported as 6.5 µM (Serine/threonine-protein kinase N3 (PKN3, Homo sapiens, UniProt Q6P5Z2); target engagement, NanoBRET; HEK293).
For `CN1CCN(Cc2ccc(NC(=O)c3cncc(C#Cc4cncc5ncccc45)c3)cc2C(F)(F)F)CC1`, the IC50 was 0.00357 ± 0.00025 µM (Kinesin-1 heavy chain/ Tyrosine-protein kinase receptor RET (RET/KIF5B, Homo sapiens, UniProt P07949+P33176, G810A); cell viability, inhibitor, CellTiter-Glo; Ba/F3 KIF5B-RET G810A).
The IC50 of `c1cncc(-c2ccc(-c3cccnc3)nc2)c1` is reported as 36 µM (ALK tyrosine kinase receptor (ALK, Homo sapiens, UniProt Q9UM73); ELISA).
The IC50 of `Cc1ccccc1-c1ccc2c(c1)sc1nc(CCC(=O)O)[nH]c(=O)c12` is reported as 43 µM (FGFR1; kinase activity, inhibitor, AlphaScreen; with: biotinylated peptide substrate).
With `CC(C)(CO)c1nc(-c2cccc(Nc3ncnn4ccc(CN5CCC(N)CC5)c34)c2)no1` the IC50 was 0.015 µM (AP2-associated protein kinase 1 (AAK1, Homo sapiens, UniProt Q2M2I8)).
`CCc1ccc(-c2nc(Nc3nc4ccccc4o3)ncc2C#N)cc1` has an IC50 of 1.53 ± 0.358 µM (Metabotropic glutamate receptor 5 (Grm5, Rattus norvegicus, UniProt P31424); calcium mobilization, negative allosteric modulator; with: glutamate EC80).
With `COC(=O)[C@@H]1C(C=Nc2ccccc2)=Cc2cc3c(cc2[C@H]1c1cc(OC)c(OC)c(OC)c1)OCO3` the IC50 was 5.6 ± 0.5 µM (Tubulin alpha/beta heterodimer; tubulin polymerization, inhibitor; 37 °C, with: tubulin 1.2 mg/mL).
For `NC(=O)c1cn(-c2ccc(F)cc2)c2ccc(Nc3cccnc3)cc2c1=O`, the IC50 was 0.328 µM (Grm2; calcium mobilization, negative allosteric modulator).
`Cc1ccc(SCC(=O)Nc2ccc3nc(SCC(=O)NC(C)C)sc3c2)cc1` gave an IC50 of > 50 µM (Estrogen receptor (ESR1, Homo sapiens, UniProt P03372); reporter gene, antagonist; HEC-1 transfected ERα luciferase reporter).
`O=[N+]([O-])c1ccc(/C=C/c2c[nH]c3ccc(F)cc23)c(F)c1` has an IC50 of 5 µM (APP amyloid-beta peptide; Aβ42 oligomerisation, ELISA).
For `O=C(O)c1cc(C(=O)N[C@@H](Cc2cnc[nH]2)C(=O)O)cc([C@H]2CCN[C@@H]2C(=O)O)c1`, the IC50 was 10 to 50 µM (AMPA receptor (rat); binding, radioligand binding; rat cortical synaptosomes; with: [3H]AMPA).
With `Cc1cc(O)c(C(=O)/C=C/c2cc(C(=O)O)cc3c2OCOC3)cc1C` the IC50 was 64 µM (Protein disulfide-isomerase (P4HB, Homo sapiens, UniProt P07237); reductase activity, inhibitor, insulin aggregation).
For `Cc1ccc2oc(-c3c4c(N)n[nH]c(=O)c4nn3-c3ccc(S(C)(=O)=O)cc3)c(C)c2c1`, the IC50 was 0.0448 ± 0.0107 µM (FGFR1; kinase activity, inhibitor, ELISA).
The IC50 of `Nc1cc(-c2ccc(C3(c4ccc(Cl)cc4)CCNCC3)cc2)ccn1` is reported as 0.111 µM (Serine/threonine-protein kinase LATS2 (LATS2, Homo sapiens, UniProt Q9NRM7); kinase activity, inhibitor, radiometric HotSpot; with: ATP 10 µM).
The IC50 of `CC(=O)N(CC#Cc1cccc(C(N)=O)c1)C[C@H]1C[C@@H](n2ccc3c(Cl)ncnc32)[C@H](O)[C@@H]1O` is reported as > 100 µM (N-terminal Xaa-Pro-Lys N-methyltransferase 1 (Homo sapiens, UniProt Q9BV86); enzyme activity, inhibitor, SAHH-coupled fluorescence).
With `COc1ccc2[nH]cc(CCc3ccc(OS(C)(=O)=O)cc3)c2c1` the IC50 was > 50 µM (Indoleamine 2,3-dioxygenase 1 (IDO1, Homo sapiens, UniProt P14902); enzyme activity, inhibitor).
With `Cc1cc(-c2ccc(C3(c4ccc(Cl)cc4)CCNCC3)cc2)ccn1` the IC50 was 0.724 µM (RAC-alpha serine/threonine-protein kinase (AKT1, Homo sapiens, UniProt P31749); kinase activity, inhibitor, radiometric HotSpot; with: ATP 10 µM).
`O=[N+]([O-])c1cccc(/C=C/c2c[nH]c3ccc(F)cc23)c1` has an IC50 of 7 µM (APP amyloid-beta peptide; Aβ42 oligomerisation, ELISA).
`O=C(CN1C(=O)C=CC1=O)N1CCN(c2cc(N3CCCC3)nc(N3CCCC3)n2)CC1` gave an IC50 of 0.144 ± 0.037 µM (Caspase-1 (CASP1, Homo sapiens, UniProt P29466); inhibitor; 30 min preincubation).
With `NC(N)=NN=C1CCCc2cc(NC(=O)c3cc4cccc([N+](=O)[O-])c4[nH]3)ccc21` the IC50 was > 100 µM (Ribosomal protein S6 kinase alpha-3 (RPS6KA3, Homo sapiens, UniProt P51812); kinase activity, inhibitor, IMAP fluorescence polarization).
For `Cc1ncsc1-c1ccc(CNC(=O)[C@@H]2C[C@@H](O)CN2C(=O)c2cccc(O)c2)cc1`, the IC50 was 3.71 ± 0.03 µM (von Hippel-Lindau disease tumor suppressor, with elongin B, C (VHL, Homo sapiens, UniProt P40337); binding, fluorescence polarization; 1% DMSO, with: FAM-HIF1α peptide tracer).
The IC50 of `CN(C)CCCNc1c2ccc(N(C)C)cc2nc2cc(N(C)C)ccc12` is reported as 2.53 µM (Serine/threonine-protein kinase/endoribonuclease IRE1 (ERN1, Homo sapiens, UniProt O75460); RNase activity, inhibitor, FRET; 90 min preincubation, with: XBP-1 RNA).
The IC50 of `CN1CC[C@H](c2c(O)cc(O)c3c(=O)cc(-c4ccccn4)oc23)[C@H](O)C1` is reported as 0.886 µM (Cyclin-dependent kinase 2, part with cyclin A (CDK2, Homo sapiens, UniProt P24941); enzyme activity, inhibitor; with cyclin A, with: histone H1 substrate).
`COc1ccc(N=Nc2c(S(=O)(=O)OC(C)C)cc3cc(Nc4nc(Cl)nc(Cl)n4)ccc3c2O)cc1` has an IC50 of 56.7 ± 10.9 µM (Protein arginine N-methyltransferase 1 (Prmt1, Rattus norvegicus, UniProt Q63009); histone methylation; with: histone 4).
The IC50 of `CCOc1ccc(S(=O)(=O)NC(=O)Cc2ccc(C)cc2)cc1Br` is reported as 3.42 µM (Cyclic GMP-AMP synthase (CGAS, Homo sapiens, UniProt Q8N884); enzyme activity, inhibitor, Kinase-Glo ATP depletion; 25 °C, 100 nM enzyme).
For `COc1ccc(C(=O)Nc2ccc(-c3nc4ccccc4[nH]3)cc2)cc1`, the IC50 was 14 µM (Tyrosine-protein kinase SYK, with FCER1G (SYK, Homo sapiens, UniProt P43405); protein binding, inhibitor, TR-FRET).
`O=C(c1c(F)ccc(NS(=O)(=O)Cc2ccccc2)c1F)c1c[nH]c2ncc(-c3cnc(C4CC4)nc3)cc12` has an IC50 of 0.2 µM (Dual specificity mitogen-activated protein kinase kinase 4 (MAP2K4, Homo sapiens, UniProt P45985); kinase activity, inhibitor).
`O=C(O)CC[C@H](NC(=O)c1cc(C(=O)O)cc([C@H]2CCN[C@@H]2C(=O)O)c1)C(=O)O` has an IC50 of 23.5 ± 1 µM (Glutamate receptor ionotropic, NMDA 2D, with GluN1 (Rattus norvegicus, UniProt Q62645); ion current, antagonist, two-electrode voltage clamp; Xenopus oocytes; GluN1/GluN2D, with: glycine 100 µM and glutamate 1 µM).
With `Nc1nc2c(ncn2COCCNC(=O)CCCCNC(=O)c2cc3cc(Br)ccc3c(Br)c2O)c(=O)[nH]1` the IC50 was ~25 µM (Deoxynucleoside triphosphate triphosphohydrolase SAMHD1 (SAMHD1, Homo sapiens, UniProt Q9Y3Z3); ssRNA binding, fluorescence anisotropy; 1 µM protein, with: FAM-labelled 32-mer ssRNA probe).
The IC50 of `c1ccc(-c2cc(NCCCn3ccnc3)nc(-c3ccccn3)n2)nc1` is reported as 5.3 µM (CLEC1B, with podoplanin (Homo sapiens, UniProt Q9P126); podoplanin binding, inhibitor, AlphaScreen; with: 50 nM biotinylated podoplanin-Fc).
For `COC(=O)[C@@H]1C(c2nc3cc(C(F)(F)F)ccc3s2)=Cc2cc3c(cc2[C@H]1c1cc(OC)c(OC)c(OC)c1)OCO3`, the IC50 was > 20 µM (Tubulin alpha/beta heterodimer; tubulin polymerization, inhibitor; 37 °C, with: tubulin 1.2 mg/mL).
The IC50 of `NS(=O)(=O)c1ccc(Cc2c(-c3ccc(F)c(/C=C/C4CCCC4)c3)nn(-c3nc(C(=O)O)cs3)c2CC2CC2)cc1F` is reported as 0.05 µM (L-lactate dehydrogenase A chain (LDHA, Homo sapiens, UniProt P00338); enzyme activity, inhibitor).
With `C[C@H](O)c1c(Cl)cncc1-c1cnc2c(c1)CCCN2C(N)=O` the IC50 was 0.91 µM (Cyclin-dependent kinase 8, with cyclin C (CDK8, Homo sapiens, UniProt P49336); binding, LanthaScreen Eu kinase binding).
With `NS(=O)(=O)c1ccccc1Nc1nc(-c2ccc(Cl)cc2)c2ccccc2n1` the IC50 was 1.85 ± 0.268 µM (Bromodomain-containing protein 4, BD2 (BRD4, Homo sapiens, UniProt O60885); binding, HTRF).

A few entries again:
The IC50 of `COc1cc(Nc2ccnc3ccc(Cl)cc23)cc(OC)c1OC` is reported as 6.5 µM (Serine/threonine-protein kinase N3 (PKN3, Homo sapiens, UniProt Q6P5Z2); target engagement, NanoBRET; HEK293).
The IC50 of `Nc1cc(-c2ccc(C3(c4ccc(Cl)cc4)CCNCC3)cc2)ccn1` is reported as 0.111 µM (Serine/threonine-protein kinase LATS2 (LATS2, Homo sapiens, UniProt Q9NRM7); kinase activity, inhibitor, radiometric HotSpot; with: ATP 10 µM).
`Cc1ccc(SCC(=O)Nc2ccc3nc(SCC(=O)NC(C)C)sc3c2)cc1` gave an IC50 of > 50 µM (Estrogen receptor (ESR1, Homo sapiens, UniProt P03372); reporter gene, antagonist; HEC-1 transfected ERα luciferase reporter).
With `COC(=O)[C@@H]1C(C=Nc2ccccc2)=Cc2cc3c(cc2[C@H]1c1cc(OC)c(OC)c(OC)c1)OCO3` the IC50 was 5.6 ± 0.5 µM (Tubulin alpha/beta heterodimer; tubulin polymerization, inhibitor; 37 °C, with: tubulin 1.2 mg/mL).
